# Assay results gathered from unrelated publications.
# Protocols differ between the studies behind these lines. Several values in a cell are separate wells, animals, samples, runs or records. ± marks the error that the study gave.
# 4'-phosphopantetheinyl transferase PptT: 4'-phosphopantetheinyl transferase PptT (Mycobacterium tuberculosis, UniProt O33336)
# Sequence of UniProt O33336 (whole entry, looked up): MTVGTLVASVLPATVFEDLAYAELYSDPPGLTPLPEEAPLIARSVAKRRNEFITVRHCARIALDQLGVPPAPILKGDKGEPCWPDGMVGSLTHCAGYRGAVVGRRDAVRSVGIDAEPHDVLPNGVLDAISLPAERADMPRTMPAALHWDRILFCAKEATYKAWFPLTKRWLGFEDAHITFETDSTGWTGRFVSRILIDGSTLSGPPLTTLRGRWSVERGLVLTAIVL
# dppA: dppA (Mycobacterium tuberculosis, UniProt I6X811)
# CNR1: Cannabinoid receptor 1 (CNR1, Homo sapiens, UniProt P21554)
# Sequence of UniProt P21554 (whole entry, unmodified, looked up): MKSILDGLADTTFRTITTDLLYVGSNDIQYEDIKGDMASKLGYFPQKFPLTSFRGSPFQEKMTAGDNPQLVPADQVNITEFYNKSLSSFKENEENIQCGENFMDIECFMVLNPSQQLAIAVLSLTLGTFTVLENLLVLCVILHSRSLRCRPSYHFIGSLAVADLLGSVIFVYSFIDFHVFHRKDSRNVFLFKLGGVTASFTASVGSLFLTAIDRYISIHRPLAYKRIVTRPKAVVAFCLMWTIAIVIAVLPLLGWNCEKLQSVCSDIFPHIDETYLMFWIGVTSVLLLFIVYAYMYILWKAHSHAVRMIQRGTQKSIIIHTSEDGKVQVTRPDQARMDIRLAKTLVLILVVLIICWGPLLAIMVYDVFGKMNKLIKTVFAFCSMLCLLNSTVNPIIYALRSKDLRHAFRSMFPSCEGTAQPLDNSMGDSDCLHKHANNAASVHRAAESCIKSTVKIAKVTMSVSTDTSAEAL
# USP14: Ubiquitin carboxyl-terminal hydrolase 14 (USP14, Homo sapiens, UniProt P54578)
# Sequence of UniProt P54578 (whole entry, looked up): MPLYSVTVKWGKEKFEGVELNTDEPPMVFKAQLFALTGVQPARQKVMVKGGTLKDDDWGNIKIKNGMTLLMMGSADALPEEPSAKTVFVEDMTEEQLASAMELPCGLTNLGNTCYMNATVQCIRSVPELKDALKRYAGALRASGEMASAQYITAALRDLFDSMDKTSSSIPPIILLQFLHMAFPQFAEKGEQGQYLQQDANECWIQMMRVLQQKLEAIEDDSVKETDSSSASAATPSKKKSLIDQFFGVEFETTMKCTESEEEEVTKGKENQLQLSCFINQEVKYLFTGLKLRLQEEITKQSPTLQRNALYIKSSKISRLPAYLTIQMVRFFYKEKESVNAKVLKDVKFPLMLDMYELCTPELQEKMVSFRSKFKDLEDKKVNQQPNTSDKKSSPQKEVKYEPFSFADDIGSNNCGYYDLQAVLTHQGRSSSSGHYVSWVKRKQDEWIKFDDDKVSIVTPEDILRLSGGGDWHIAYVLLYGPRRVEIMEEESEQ
# MAP2K7: Dual specificity mitogen-activated protein kinase kinase 7 (MAP2K7, Homo sapiens, UniProt O14733)
# Sequence of UniProt O14733 (whole entry, looked up): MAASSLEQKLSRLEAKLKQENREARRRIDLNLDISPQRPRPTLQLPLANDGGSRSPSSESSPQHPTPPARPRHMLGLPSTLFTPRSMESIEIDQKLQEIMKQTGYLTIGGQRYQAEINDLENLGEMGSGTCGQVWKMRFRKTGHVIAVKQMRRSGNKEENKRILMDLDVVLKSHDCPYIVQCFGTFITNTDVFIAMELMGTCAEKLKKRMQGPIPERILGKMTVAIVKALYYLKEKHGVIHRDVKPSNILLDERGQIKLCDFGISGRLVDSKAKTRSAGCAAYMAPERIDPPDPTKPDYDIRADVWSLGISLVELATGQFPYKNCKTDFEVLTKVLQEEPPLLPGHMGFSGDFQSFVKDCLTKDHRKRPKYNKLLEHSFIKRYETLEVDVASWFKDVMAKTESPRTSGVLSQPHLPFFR
# CNR1 Y397A: Cannabinoid receptor 1 (CNR1, Homo sapiens, UniProt P21554, Y397A)
# Sequence of UniProt P41586 (whole entry, unmodified, looked up): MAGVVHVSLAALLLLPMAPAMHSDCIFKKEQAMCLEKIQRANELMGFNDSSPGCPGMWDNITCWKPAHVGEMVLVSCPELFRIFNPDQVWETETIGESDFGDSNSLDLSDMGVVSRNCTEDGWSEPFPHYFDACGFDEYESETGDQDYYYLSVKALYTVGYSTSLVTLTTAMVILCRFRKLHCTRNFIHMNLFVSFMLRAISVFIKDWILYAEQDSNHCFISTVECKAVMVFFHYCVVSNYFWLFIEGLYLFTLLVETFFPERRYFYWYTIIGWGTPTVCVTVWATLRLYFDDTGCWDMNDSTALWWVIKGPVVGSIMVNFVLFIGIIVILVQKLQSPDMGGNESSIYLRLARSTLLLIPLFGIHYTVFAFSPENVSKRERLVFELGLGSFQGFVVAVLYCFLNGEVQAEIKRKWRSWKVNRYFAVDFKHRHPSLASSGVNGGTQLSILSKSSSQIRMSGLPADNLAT
# Sequence of UniProt P9WG47 (whole entry, looked up): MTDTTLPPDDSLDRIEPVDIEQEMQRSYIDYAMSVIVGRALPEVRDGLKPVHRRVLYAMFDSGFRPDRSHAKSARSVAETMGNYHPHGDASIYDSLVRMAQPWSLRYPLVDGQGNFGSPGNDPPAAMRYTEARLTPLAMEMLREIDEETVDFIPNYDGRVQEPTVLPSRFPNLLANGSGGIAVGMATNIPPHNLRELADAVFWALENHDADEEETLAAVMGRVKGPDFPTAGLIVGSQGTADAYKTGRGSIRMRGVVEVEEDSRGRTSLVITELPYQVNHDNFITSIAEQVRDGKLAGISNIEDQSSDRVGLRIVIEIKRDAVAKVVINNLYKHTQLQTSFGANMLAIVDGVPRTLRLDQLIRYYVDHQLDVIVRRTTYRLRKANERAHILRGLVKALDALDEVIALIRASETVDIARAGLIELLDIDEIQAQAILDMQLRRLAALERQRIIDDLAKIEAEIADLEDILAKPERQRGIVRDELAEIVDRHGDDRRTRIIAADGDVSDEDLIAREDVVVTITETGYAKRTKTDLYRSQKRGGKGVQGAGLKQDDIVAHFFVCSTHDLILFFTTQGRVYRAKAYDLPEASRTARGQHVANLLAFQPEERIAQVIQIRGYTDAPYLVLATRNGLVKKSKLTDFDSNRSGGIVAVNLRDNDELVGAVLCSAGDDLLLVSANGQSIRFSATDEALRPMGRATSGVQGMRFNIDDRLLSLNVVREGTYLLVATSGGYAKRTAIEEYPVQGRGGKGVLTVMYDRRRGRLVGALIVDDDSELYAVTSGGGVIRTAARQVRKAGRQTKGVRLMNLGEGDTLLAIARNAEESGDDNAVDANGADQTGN
# Sequence of UniProt O15530 (whole entry, looked up): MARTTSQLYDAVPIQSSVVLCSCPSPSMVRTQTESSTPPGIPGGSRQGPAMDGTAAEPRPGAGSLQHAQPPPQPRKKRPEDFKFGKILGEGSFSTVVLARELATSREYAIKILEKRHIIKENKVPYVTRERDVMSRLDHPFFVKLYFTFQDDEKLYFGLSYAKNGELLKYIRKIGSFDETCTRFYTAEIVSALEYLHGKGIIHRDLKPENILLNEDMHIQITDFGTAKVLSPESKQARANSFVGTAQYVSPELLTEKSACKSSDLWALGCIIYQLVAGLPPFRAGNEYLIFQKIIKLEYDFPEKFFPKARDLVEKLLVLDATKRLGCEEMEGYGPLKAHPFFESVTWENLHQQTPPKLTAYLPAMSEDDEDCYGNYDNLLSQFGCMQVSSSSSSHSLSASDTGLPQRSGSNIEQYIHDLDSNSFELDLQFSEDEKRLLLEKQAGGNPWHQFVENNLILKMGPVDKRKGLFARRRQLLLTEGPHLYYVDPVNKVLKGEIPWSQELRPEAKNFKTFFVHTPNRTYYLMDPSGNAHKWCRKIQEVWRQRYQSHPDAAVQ
# Sequence of UniProt P9WIA1 (whole entry, looked up): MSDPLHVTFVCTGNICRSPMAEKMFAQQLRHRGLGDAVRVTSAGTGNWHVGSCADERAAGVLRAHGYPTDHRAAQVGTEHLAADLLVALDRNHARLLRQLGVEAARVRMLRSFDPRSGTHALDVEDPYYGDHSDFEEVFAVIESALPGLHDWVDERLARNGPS
# Sequence of UniProt Q9UM07 (whole entry, looked up): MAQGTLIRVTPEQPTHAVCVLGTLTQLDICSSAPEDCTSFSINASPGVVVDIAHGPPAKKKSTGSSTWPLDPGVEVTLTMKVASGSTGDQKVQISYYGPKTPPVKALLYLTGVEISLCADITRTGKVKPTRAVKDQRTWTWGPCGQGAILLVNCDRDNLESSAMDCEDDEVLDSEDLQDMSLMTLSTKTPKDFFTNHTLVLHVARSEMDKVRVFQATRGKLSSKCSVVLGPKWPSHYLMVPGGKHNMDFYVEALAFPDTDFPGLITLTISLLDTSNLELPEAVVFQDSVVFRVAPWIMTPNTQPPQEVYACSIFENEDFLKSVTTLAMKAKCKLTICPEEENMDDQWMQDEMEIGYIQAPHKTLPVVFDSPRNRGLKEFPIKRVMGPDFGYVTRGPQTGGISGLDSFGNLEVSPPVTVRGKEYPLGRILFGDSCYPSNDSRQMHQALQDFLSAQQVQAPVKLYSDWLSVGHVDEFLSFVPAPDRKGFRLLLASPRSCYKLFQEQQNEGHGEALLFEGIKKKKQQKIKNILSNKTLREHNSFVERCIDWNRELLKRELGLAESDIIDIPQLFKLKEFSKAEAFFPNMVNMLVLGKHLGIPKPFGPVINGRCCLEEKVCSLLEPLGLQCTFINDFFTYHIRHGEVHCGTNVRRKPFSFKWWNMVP
# Sequence of UniProt P55212 (whole entry, looked up): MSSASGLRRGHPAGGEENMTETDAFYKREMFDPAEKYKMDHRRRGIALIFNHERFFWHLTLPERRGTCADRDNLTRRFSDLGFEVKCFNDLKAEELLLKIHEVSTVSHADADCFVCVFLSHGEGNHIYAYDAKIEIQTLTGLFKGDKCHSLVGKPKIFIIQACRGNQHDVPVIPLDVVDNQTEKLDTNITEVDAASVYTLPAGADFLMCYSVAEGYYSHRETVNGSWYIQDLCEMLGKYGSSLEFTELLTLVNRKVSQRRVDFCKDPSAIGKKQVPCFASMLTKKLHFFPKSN
SMILES,tested on,test,test system,setting,scale,measurement,value
CSCC[C@H](NC(=O)[C@H](CCC(N)=O)NC(=O)[C@H](CCCCN)NC(=O)[C@H](CCCNC(=N)N)NC(=O)[C@H](Cc1ccc(O)cc1)NC(=O)[C@H](CCCNC(=N)N)NC(=O)[C@H](CO)NC(=O)[C@H](Cc1ccc(O)cc1)NC(=O)[C@H](CO)NC(=O)[C@H](CC(=O)O)NC(=O)[C@@H](NC(=O)[C@@H](N)Cc1ccccc1)[C@@H](C)O)C(=O)N[C@@H](C)C(=O)N[C@H](C(=O)N[C@@H](CCCCN)C(=O)N[C@@H](CCCCn1cc(C[C@H](NC(=O)CNC(=O)[C@H](CO)NC(=O)[C@H](CCCNC(=N)N)NC(=O)[C@H](CO)NC(=O)[C@H](CC(C)C)NC(=O)[C@H](CC(C)C)NC(=O)CNC(=O)[C@H](C)NC(=O)[C@H](CC(C)C)NC(=O)[C@H](CCCNC(=N)N)NC(=O)[C@H](Cc2c[nH]cn2)NC(=O)[C@@H](NC(=O)[C@@H](N)C(C)C)[C@@H](C)O)C(=O)N[C@H](C(=O)N[C@H](C(=O)N[C@@H](CCCCN)C(=O)N[C@@H](CC(N)=O)C(=O)N[C@@H](CC(N)=O)C(=O)N[C@@H](Cc2ccccc2)C(=O)N[C@H](C(=O)N2CCC[C@H]2C(=O)N[C@H](C(=O)N[C@@H](CC(N)=O)C(=O)N[C@H](C(=O)NCC(=O)N[C@@H](CO)C(=O)N[C@@H](CCCCN)C(=O)N[C@@H](C)C(=O)N[C@@H](Cc2ccccc2)C(N)=O)C(C)C)[C@@H](C)O)C(C)C)C(C)C)C(C)C)nn1)C(=O)N[C@@H](Cc1ccc(O)cc1)C(=O)N[C@@H](CC(C)C)C(=O)N[C@@H](C)C(=O)N[C@@H](C)C(=O)N[C@H](C(=O)N[C@@H](CC(C)C)C(=O)NCC(=O)N[C@@H](CCCCN)C(=O)N[C@@H](CCCNC(=N)N)C(=O)N[C@@H](Cc1ccc(O)cc1)C(=O)N[C@@H](CCCCN)C(=O)N[C@@H](CCC(N)=O)C(=O)N[C@@H](CCCNC(=N)N)C(=O)N[C@H](C(=O)N[C@@H](CCCCN)C(=O)N[C@@H](CC(N)=O)C(=O)N[C@@H](CCCCN)C(N)=O)C(C)C)C(C)C)C(C)C,"ADCYAP1R1 (Homo sapiens, UniProt P41586, del89-109)","cAMP accumulation, antagonist",COS-7 transfected,"from pA2, single concentration, with: PACAP-38",,Kb,3980 nM
CCN(Cc1ccc2nc(C)[nH]c(=O)c2c1)c1ccc(C(=O)NC(CCC(=O)O)C(=O)O)s1 (centres unmarked),4'-phosphopantetheinyl transferase PptT,"enzyme activity, inhibitor, fluorescence polarisation",,,,Hill slope,1
CC(C)CC(C(=O)N1CC2(CC1C#N)C(=O)Nc1ccccc12)N(C)C(=O)c1cc2c(F)cc(F)c(F)c2[nH]1 (centres unmarked),"Caspase-6 (CASP6, Homo sapiens, UniProt P55212)",,,,,Hill slope,-1.64
CC(C)[C@H](N)C(=O)N[C@H](C(=O)N[C@H](C(=O)O)C(C)C)C(C)C,dppA,,,,,delta Tm,≥ 2 °C
CCCCCn1cc(C(=O)c2cccc3c2CC(C)(C)C3)c2ccccc21,CNR1,"Gαi1 activation, agonist, BRET",,,baseline: reference agonist,Emax,119 ± 8%
CC(C)[C@H](NC(=O)[C@H](CCCCN)NC(=O)[C@@H](N)CCCCN)C(=O)O,dppA,,,pH 7.4,,kon,2.99 ± 3000 M⁻¹ s⁻¹
CC(C)(C)N1C(=O)NC(=O)C(=Cc2ccccc2Cl)C1=O,USP14,"enzyme activity, inhibitor",,17 µM,,inhibition,30%
CCCCCn1cc(C(=O)c2ccc3ccccc3c2)c2ccccc21,CNR1,"GαoA activation, agonist, BRET",,,baseline: reference agonist,Emax,71.2 ± 5.8%
C#CCN(Cc1ccc2nc(C)[nH]c(=O)c2c1)c1ccc(C(=O)NC(CCC(=O)O)C(=O)O)c(O)c1 (centres unmarked),4'-phosphopantetheinyl transferase PptT,"enzyme activity, inhibitor, fluorescence polarisation",,,,Hill slope,1.2
COc1ccccc1-c1n[nH]c2nc(NC3CCN(C(=O)Cc4ccc(F)cc4F)CC3)ncc12,,"bead binding, competition bead pull-down, measured: LINJ.34.0070",Leishmania donovani axenic amastigote extract,10 µM,baseline: vehicle,relative abundance,0.92
N[C@@H](CCC(=O)N[C@@H](CS[Se]Cc1ccc(C(=O)Nc2cc(C(F)(F)F)c(Br)c(C(F)(F)F)c2)cc1)C(=O)NCC(=O)O)C(=O)O,"Low molecular weight protein-tyrosine phosphatase A (Mycobacterium tuberculosis, UniProt P9WIA1)","enzyme activity, inhibitor",,,,kinact/KI,360000 M⁻¹ s⁻¹
C#CCN(Cc1ccc2nc(C)[nH]c(=O)c2c1)c1ccc(C(=O)N[C@H](CCC(=O)O)C(=O)O)cc1,4'-phosphopantetheinyl transferase PptT,"enzyme activity, inhibitor, fluorescence polarisation",,,,Hill slope,1.2
O=[N+]([O-])CC(c1ccco1)c1c(-c2ccccc2)[nH]c2ccccc12 (centres unmarked),"Cannabinoid receptor 1, with Gi2 (CNR1, Homo sapiens, UniProt P21554)","Gi2 dissociation, agonist, BRET",,,,Emax,46.1 ± 3.13%
Cc1cc(C(=O)Nc2nc3cccc(C)c3n2[C@H]2CCCCN(C(=O)/C=C/CN(C)C)C2)ccn1,Trypanosoma brucei,"cell growth, Alamar Blue",2T1 overexpressing Tb927.11.4470,,baseline: parental 2T1,EC50 fold shift,1.04 fold and 0.7 fold
C#CCN(Cc1ccc2nc(C)[nH]c(=O)c2c1)c1ccc(C(=O)NC(CCC(=O)O)C(=O)O)s1 (centres unmarked),4'-phosphopantetheinyl transferase PptT,"enzyme activity, inhibitor, fluorescence polarisation",,,,Hill slope,1.2
O=C1NC(=O)c2c1c1cc(F)c[n+]3c1c1c2c2cc(O)ccc2[n]1[Ru-4]312([N]=C=S)[S+]3CC[S+]1CC[S+]2CC3 (centres unmarked),MAP2K7,enzyme activity,,"100 nM, human enzyme, with: 10 µM ATP",baseline: untreated,remaining activity,38%
Cc1ccc2c(C(C[N+](=O)[O-])c3cccs3)c(-c3ccccc3)[nH]c2c1 (centres unmarked),CNR1 Y397A,"Gαi1-γ2 dissociation, BRET",,,,Emax,56.7 ± 1.19%
CS(C)(=O)=Nc1ccc(-c2ccc(-c3nc4cc(O[C@@H]5CO[C@H]6[C@@H]5OC[C@H]6O)[nH]c4cc3F)cc2)cc1,MAP2K7,kinase activity,,10 µM,,inhibition,8%
CSCC[C@H](NC(=O)[C@H](CCC(N)=O)NC(=O)[C@H](CCCCN)NC(=O)[C@H](CCCNC(=N)N)NC(=O)[C@H](Cc1ccc(O)cc1)NC(=O)[C@H](CCCNC(=N)N)NC(=O)[C@H](CO)NC(=O)[C@H](Cc1ccc(O)cc1)NC(=O)[C@H](CO)NC(=O)[C@H](CC(=O)O)NC(=O)[C@@H](NC(=O)[C@@H](N)Cc1ccccc1)[C@@H](C)O)C(=O)N[C@@H](C)C(=O)N[C@H](C(=O)N[C@@H](CCCCN)C(=O)N[C@@H](CCCCN)C(=O)N[C@@H](Cc1ccc(O)cc1)C(=O)N[C@@H](CC(C)C)C(=O)N[C@@H](C)C(=O)N[C@@H](C)C(=O)N[C@H](C(=O)N[C@@H](CC(C)C)C(=O)NCC(=O)N[C@@H](CCCCN)C(=O)N[C@@H](CCCNC(=N)N)C(=O)N[C@@H](Cc1ccc(O)cc1)C(=O)N[C@@H](CCCCN)C(=O)N[C@@H](CCC(N)=O)C(=O)N[C@@H](CCCCn1cc(C[C@H](NC(=O)CNC(=O)[C@H](CO)NC(=O)[C@H](CCCNC(=N)N)NC(=O)[C@H](CO)NC(=O)[C@H](CC(C)C)NC(=O)[C@H](CC(C)C)NC(=O)CNC(=O)[C@H](C)NC(=O)[C@H](CC(C)C)NC(=O)[C@H](CCCNC(=N)N)NC(=O)[C@H](Cc2c[nH]cn2)NC(=O)[C@@H](NC(=O)[C@@H](N)C(C)C)[C@@H](C)O)C(=O)N[C@H](C(=O)N[C@H](C(=O)N[C@@H](CCCCN)C(=O)N[C@@H](CC(N)=O)C(=O)N[C@@H](CC(N)=O)C(=O)N[C@@H](Cc2ccccc2)C(=O)N[C@H](C(=O)N2CCC[C@H]2C(=O)N[C@H](C(=O)N[C@@H](CC(N)=O)C(=O)N[C@H](C(=O)NCC(=O)N[C@@H](CO)C(=O)N[C@@H](CCCCN)C(=O)N[C@@H](C)C(=O)N[C@@H](Cc2ccccc2)C(N)=O)C(C)C)[C@@H](C)O)C(C)C)C(C)C)C(C)C)nn1)C(=O)N[C@H](C(=O)N[C@@H](CCCCN)C(=O)N[C@@H](CC(N)=O)C(=O)N[C@@H](CCCCN)C(N)=O)C(C)C)C(C)C)C(C)C,"ADCYAP1R1 (Homo sapiens, UniProt P41586)","cAMP accumulation, antagonist",,with: VIP,,Kb,28.8 nM
Cc1sc2c(c1C)C(c1ccc(Cl)cc1)=NC(CC(=O)OC(C)(C)C)c1nnc(C)n1-2 (centres unmarked),"NTSR1 (Homo sapiens, UniProt P30989)","ligand displacement, radioligand",,1 µM,,inhibition,-4%
O=C1NC(=O)C(C2(O)C(=O)c3ccccc3C2=O)C(=O)N1,USP14,"enzyme activity, inhibitor",,17 µM,,inhibition,64%
COc1ccccc1C(C[N+](=O)[O-])c1c(-c2ccccc2)[nH]c2ccccc12 (centres unmarked),CNR1 Y397A,"Gαi1-γ2 dissociation, BRET",,,,Emax,64.8 ± 5.49%
COc1ccc2ncc(F)c(C[C@H](O)[C@H]3OC[C@H](NCc4ccc5c(n4)NC(=O)CO5)CO3)c2c1,"DNA gyrase subunit A, with GyrB (Mycobacterium tuberculosis, UniProt P9WG47)",DNA cleavage,,"concentration not given, 10 min, 37 °C, with: gyrase 100 nM",,maximal single-stranded DNA breaks,~15%
CC[C@H](C)[C@@H]1NC(=O)CNC(=O)[C@@H]2Cc3c([nH]c4cc(O)ccc34)[S@+]([O-])C[C@H](NC(=O)CNC1=O)C(=O)N[C@@H](CC(N)=O)C(=O)N1C[C@H](O)C[C@H]1C(=O)N[C@@H]([C@@H](C)[C@@H](O)CO)C(=O)N2,"DNA-directed RNA polymerase II subunit RPB1 (Homo sapiens, UniProt P24928)",,HeLa nuclear extract,"3.0 nM, 60 min",,transcription activity,69 ± 9%
C#CCN(Cc1ccc2nc(C)[nH]c(=O)c2c1)c1ccc(C(=O)NC(CCCC(=O)O)C(=O)O)cc1 (centres unmarked),4'-phosphopantetheinyl transferase PptT,"enzyme activity, inhibitor, fluorescence polarisation",,,,Hill slope,1.2
N[C@H](C(=O)N1CCCC1)C1CCN(c2nccc3c(-c4ncc(Cl)cc4Cl)cccc23)CC1,"PADI4 (Homo sapiens, UniProt Q9UM07)","enzyme activity, inhibitor",,60 µM,,inhibition,101%
O=C1NC2(CC2)COc2ncc(F)cc2[C@H]2COCCN2c2ccn3ncc1c3n2,,,"Sprague-Dawley rat, female, adrenals","oral, 10 mg/kg/day, 4 weeks, end of treatment",,organ-to-body weight ratio,0.021 ± 0.004%
CC(C)[C@H](NC(=O)[C@@H](NC(=O)[C@@H](N)CCCCN)C(C)C)C(=O)O,dppA,,,pH 7.4,,kon,2.21 ± 3000 M⁻¹ s⁻¹
CN(C)[C@H]1C[C@@]23CC[C@@]4(O2)C(=CC[C@]2(C)[C@@H](c5ccc6ccncc6c5)CC[C@H]24)C=C3[C@@H](O)[C@@H]1O,"PDPK1 (Homo sapiens, UniProt O15530)","ATP probe labelling, inhibitor, KiNativ profiling",,1 µM,,inhibition,-5.5%
C#CCN(Cc1ccc2nc(CC)[nH]c(=O)c2c1)c1ccc(C(=O)NC(CCC(=O)O)C(=O)O)cc1 (centres unmarked),4'-phosphopantetheinyl transferase PptT,"enzyme activity, inhibitor, fluorescence polarisation",,,,Hill slope,1.2
CC(C)[C@H](N)C(=O)N[C@H](C(=O)N[C@H](C(=O)N[C@H](C(=O)O)C(C)C)C(C)C)C(C)C,dppA,,,pH 7.4,,kon,5.55 ± 20000 M⁻¹ s⁻¹
Nc1ccc(/C=C/C(=O)N2CCc3c(oc4c(-c5ccc(F)cc5)cc(-c5ccc(C(=O)N6CCC(F)(F)CC6)cn5)cc34)C2)cn1,"CDK19 (Homo sapiens, UniProt Q9BWU1)",KINOMEscan,,1 µM,,remaining binding,98%
C=CCN(Cc1ccc2nc(C)[nH]c(=O)c2c1)c1cnc(C(=O)NC(CCC(=O)O)C(=O)O)s1 (centres unmarked),4'-phosphopantetheinyl transferase PptT,"enzyme activity, inhibitor, fluorescence polarisation",,,,Hill slope,1.2
CC[C@H](C)[C@H](NC(=O)[C@H](CO)NC(=O)[C@H](Cc1ccc(O)cc1)NC(=O)[C@H](Cc1ccc(O)cc1)NC(=O)[C@H](CC(N)=O)NC(=O)CNC(=O)[C@H](CO)NC(=O)[C@H](Cc1ccc(O)cc1)NC(=O)[C@H](CO)NC(=O)[C@H](CO)NC(=O)[C@H](CC(N)=O)NC(=O)COCCOCCNC(=O)CN1CCN(CC(=O)O)CCN(CC(=O)O)CCN(CC(=O)O)CC1)C(=O)N[C@@H](CC(C)C)C(N)=O [copper-64 labelled],,dynamic PET,"tamoxifen-induced PDAC mouse model, metastases","2.5 min, CLDN4-expressing tumours",,maximum metastasis uptake,20.2 %IA/cc
CC(C)(C)C(=O)OCOP(=O)(OCOC(=O)C(C)(C)C)C1CCCN(O)C1=O (centres unmarked),HOP-92,,,,,GI50,695 nM
CC(C)[C@H]1NC(=O)C[C@H]2/C=C/CCSSC[C@@H](NC1=O)C(=O)N[C@H](Cc1cccc3ccccc13)C(=O)NCC(=O)O2,"Protein kinase C beta type, isoform beta-II (PRKCB, Homo sapiens, UniProt P05771)",,,10 µM,,inhibition,-2.4%
C#CCN(Cc1ccc2nc(C)[nH]c(=O)c2c1)c1ccc(C(=O)NC(CCC(=O)O)C(=O)O)c(Cl)c1 (centres unmarked),4'-phosphopantetheinyl transferase PptT,"enzyme activity, inhibitor, fluorescence polarisation",,,,Hill slope,1.2
CC(C)[C@H](NC(=O)[C@@H](N)CC(=O)O)C(=O)N[C@@H](CC(=O)O)C(=O)O,dppA,,,pH 7.4,,kon,2.25 ± 400 M⁻¹ s⁻¹
